Measurements gathered from unrelated publications.
Parts stem from different laboratories: compare values within a part only.

Study 1 — technique: RNA Bind-n-Seq; molecule type: RNA; matrix: in vitro; concentration: 365 nM; reference: no-protein control; reading: higher = stronger binding
Target: RNA binding protein fox-1 homolog 2, RRM domain, GST-SBP tag (RBFOX2, Homo sapiens, UniProt O43251-10, residues 100-194)
Notes: natural RNA segment, single round, ends assumed
Residues (chain): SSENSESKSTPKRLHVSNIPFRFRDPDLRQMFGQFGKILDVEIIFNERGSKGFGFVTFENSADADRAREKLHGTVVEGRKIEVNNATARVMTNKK
`GGGAGUUCUACAGUCCGACGAUCUUUUUUGCUUAAUCAAACUCCAUUCCCAAAUGCACUCCAUCUCUGGCUCUGAGGGCGCUCCCUCCUCUCAGCCGGGCAGCCUGGCCUCUCCUGCCCAGACCUGCGGUCCCUGGAAUUCUCGGGUGCCAA` — result for “RBNS enrichment (R)”: 0.996.
Under “RBNS enrichment (R)”, `GGGAGUUCUACAGUCCGACGAUCAUAAAAUAAAAUAAAAUAAAACAUCUUGCCCCUAGCUGAGAGAGAGGUCUCUGAAGAGCAGGCUCAGGGAAAAGAUGAGUUUUCAGAGCUGAUGUGAUAGUCAGCUUCUCUGGAAUUCUCGGGUGCCAA` is recorded as 0.649.
`GGGAGUUCUACAGUCCGACGAUCGGGCUGAAGGUCCCUUGGAGCCCAGUGUCUAGUCACACCUUUUUGCUCUGGGCCCAUGAGGCCUACUUCUUCCUUUUCUCAUGGAAUCCUGGGUAGAAUCUUAAUAAUAGUGGAAUUCUCGGGUGCCAA` — result for “RBNS enrichment (R)”: 0.264.

Study 2 — technique: competition protein-binding microarray; molecule type: double-stranded DNA, one strand shown; matrix: in vitro; concentration: 2 µM; with: Cbf1 competitor, 0.05 µM; reading: higher = stronger binding
Target: Phosphate system positive regulatory protein PHO4, full length, GST-tagged (PHO4, Saccharomyces cerevisiae, UniProt P07270, residues 1-312)
Notes: whole 60-bp probe, lowest competitor level
Residues (chain): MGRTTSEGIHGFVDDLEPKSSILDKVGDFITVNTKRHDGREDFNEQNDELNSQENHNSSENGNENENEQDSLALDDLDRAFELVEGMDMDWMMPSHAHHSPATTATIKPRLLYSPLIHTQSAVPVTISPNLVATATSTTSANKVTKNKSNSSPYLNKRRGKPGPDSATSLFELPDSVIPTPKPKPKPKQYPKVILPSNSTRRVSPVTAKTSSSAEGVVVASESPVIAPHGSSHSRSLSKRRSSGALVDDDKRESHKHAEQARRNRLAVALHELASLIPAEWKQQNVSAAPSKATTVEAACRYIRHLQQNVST
`GTTAATGTTGGAGCTGTTGTGACGGTATTAGAACAAGTCTTGATTCGCTTGACGCTGCTG` has a fluorescence intensity of 4360 a.u.
With `CCCGCCCAAGCCGACCACGTGCCGCGAGCCCGGCGGGTCTTGATTCGCTTGACGCTGCTG` the fluorescence intensity was 17200 a.u.
`AACTCCTGTGGCAACTTCGTGATGGTGTTGATCTCCGTCTTGATTCGCTTGACGCTGCTG` has a fluorescence intensity of 4990 a.u.
`CGTCCTAGTGATTGTCACAGCACTTCCATGAGGAAGGTCTTGATTCGCTTGACGCTGCTG` gave a fluorescence intensity of 4770 a.u.

Study 3 — technique: RNA Bind-n-Seq; molecule type: RNA; matrix: in vitro; concentration: 200 nM; notes: whole 134-nt RNA, ends assumed; with: 150 mM KCl; reference: input library; reading: higher = stronger binding
Target: Fragile X messenger ribonucleoprotein 1, C-terminal low-complexity region (Fmr1, Mus musculus, UniProt P35922)
For `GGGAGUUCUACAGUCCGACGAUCUCCUGUGCUACACAUCGUAUGUACCGAAUCGGGGAAAAAAAGGGGUGGGGAAAAAGGGGAAAGUAUUAUGUUACGCCGUUCGGAUCUGCAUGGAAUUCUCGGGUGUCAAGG`, the log2 enrichment was 0.645.
`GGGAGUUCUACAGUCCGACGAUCGUCCUGUGCUACACAUCGUAUGUACCGAAUCAAACCCAAACCCCCCCAAAUUUUUAAAAAAGUAUUAUGUUACGCCGUUCGGAUCUGCACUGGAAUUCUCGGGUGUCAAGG` has a log2 enrichment of -0.158.
`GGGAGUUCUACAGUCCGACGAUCUCAAGGGUUAUACACGGAAAGCCGCUGCGCUGGAAGCGAUGAAGGACUACACCAAAGCCAUGGAUGUGUACCAGAAGGCGCUAGACCUGGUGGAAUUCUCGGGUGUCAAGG` has a log2 enrichment of -0.441.
For `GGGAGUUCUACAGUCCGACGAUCUGGCCCUGGUGGCAUGCGGGGAGGAAGAGGUGGCCUCAUGGAUCGUGGUGGUCCCGGUGGAAUGUUCAGAGGUGGCCGUGGUGGAGGCAGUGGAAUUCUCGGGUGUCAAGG`, the log2 enrichment was 0.186.
`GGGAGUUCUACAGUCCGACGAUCCAAGUCCUGUGCUACACAUCGUAUGUACCGAAUCGGCCCGGGCCCGGGCCCGGGGAAAGUAUUAUGUUACGCCGUUCGGAUCUGCACUUCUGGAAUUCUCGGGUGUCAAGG` has a log2 enrichment of -0.844.

Mixed results
For `PhoQ, residues 284 288 289 292 302 303 TGYLSA`, the fold induction was 13.5 (PhoP, residues 12 14 15 18 19 TTLRV (Escherichia coli, UniProt P23836); Sort-seq, refers to: YFP reporter; E. coli; PhoQ-PhoP variant library, with: 10 µM Mg2+; reference: high Mg2+ state, higher = stronger signaling).

Repeated from above (mixed results):
For `PhoQ, residues 284 288 289 292 302 303 TGYLSA`, the fold induction was 13.5 (PhoP, residues 12 14 15 18 19 TTLRV (Escherichia coli, UniProt P23836); Sort-seq, refers to: YFP reporter; E. coli; PhoQ-PhoP variant library, with: 10 µM Mg2+; reference: high Mg2+ state, higher = stronger signaling).
